Measurements collected from several papers.
Parts stem from different laboratories: compare values within a part only.
UniProt O00329, sequence (whole entry, looked up): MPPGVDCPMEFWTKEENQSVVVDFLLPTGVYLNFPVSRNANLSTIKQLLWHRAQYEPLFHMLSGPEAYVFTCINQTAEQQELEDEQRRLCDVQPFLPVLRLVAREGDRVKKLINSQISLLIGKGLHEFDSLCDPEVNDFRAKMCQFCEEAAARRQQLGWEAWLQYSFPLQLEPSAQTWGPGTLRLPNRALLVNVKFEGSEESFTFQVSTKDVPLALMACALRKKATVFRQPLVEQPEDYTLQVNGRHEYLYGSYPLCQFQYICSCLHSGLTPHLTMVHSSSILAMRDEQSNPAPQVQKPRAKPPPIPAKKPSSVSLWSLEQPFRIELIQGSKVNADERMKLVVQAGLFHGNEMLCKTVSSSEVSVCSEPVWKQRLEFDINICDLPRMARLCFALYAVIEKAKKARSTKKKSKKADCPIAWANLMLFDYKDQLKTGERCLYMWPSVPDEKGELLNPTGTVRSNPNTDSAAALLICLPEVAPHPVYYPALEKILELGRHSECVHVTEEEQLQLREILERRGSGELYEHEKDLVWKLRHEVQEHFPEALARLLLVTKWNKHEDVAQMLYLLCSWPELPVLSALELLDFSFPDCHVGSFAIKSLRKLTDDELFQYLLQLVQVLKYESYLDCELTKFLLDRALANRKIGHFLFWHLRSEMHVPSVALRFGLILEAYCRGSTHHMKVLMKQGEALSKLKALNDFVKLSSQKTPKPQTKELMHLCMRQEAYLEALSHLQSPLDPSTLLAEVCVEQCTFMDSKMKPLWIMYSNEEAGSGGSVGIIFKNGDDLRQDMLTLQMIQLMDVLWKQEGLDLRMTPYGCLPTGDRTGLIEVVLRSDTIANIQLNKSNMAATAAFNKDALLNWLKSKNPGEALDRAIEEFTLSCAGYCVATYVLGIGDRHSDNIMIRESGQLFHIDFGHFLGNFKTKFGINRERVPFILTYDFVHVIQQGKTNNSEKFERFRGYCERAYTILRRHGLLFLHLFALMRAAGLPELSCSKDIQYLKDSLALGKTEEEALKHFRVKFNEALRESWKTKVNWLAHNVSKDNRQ
UniProt P10721, sequence (whole entry, unmodified, looked up): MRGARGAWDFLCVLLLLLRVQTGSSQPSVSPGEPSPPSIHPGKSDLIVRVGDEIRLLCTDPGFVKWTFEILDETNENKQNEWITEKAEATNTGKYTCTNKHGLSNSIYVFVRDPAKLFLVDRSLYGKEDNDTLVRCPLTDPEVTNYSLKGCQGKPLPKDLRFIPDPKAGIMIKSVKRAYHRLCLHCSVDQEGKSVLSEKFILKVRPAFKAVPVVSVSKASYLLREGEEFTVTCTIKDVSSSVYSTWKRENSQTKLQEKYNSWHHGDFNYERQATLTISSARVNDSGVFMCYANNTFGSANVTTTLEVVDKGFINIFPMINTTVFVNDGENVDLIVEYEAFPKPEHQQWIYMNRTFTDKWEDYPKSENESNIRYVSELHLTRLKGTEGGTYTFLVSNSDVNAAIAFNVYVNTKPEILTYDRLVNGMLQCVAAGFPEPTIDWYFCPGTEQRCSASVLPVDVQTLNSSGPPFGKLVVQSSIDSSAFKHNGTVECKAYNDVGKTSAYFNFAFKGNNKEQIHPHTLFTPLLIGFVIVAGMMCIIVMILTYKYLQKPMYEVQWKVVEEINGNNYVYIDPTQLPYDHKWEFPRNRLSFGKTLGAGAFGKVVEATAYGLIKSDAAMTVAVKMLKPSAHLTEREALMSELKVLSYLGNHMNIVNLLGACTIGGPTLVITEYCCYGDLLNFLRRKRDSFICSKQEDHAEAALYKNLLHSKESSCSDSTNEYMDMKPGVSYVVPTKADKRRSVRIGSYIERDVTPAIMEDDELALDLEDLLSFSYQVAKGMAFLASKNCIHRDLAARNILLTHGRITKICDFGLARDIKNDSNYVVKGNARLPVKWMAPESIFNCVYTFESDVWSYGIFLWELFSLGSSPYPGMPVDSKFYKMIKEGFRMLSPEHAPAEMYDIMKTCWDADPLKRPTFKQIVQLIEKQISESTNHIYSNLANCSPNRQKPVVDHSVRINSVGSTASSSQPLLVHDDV
UniProt Q8N5S9, sequence (whole entry, looked up): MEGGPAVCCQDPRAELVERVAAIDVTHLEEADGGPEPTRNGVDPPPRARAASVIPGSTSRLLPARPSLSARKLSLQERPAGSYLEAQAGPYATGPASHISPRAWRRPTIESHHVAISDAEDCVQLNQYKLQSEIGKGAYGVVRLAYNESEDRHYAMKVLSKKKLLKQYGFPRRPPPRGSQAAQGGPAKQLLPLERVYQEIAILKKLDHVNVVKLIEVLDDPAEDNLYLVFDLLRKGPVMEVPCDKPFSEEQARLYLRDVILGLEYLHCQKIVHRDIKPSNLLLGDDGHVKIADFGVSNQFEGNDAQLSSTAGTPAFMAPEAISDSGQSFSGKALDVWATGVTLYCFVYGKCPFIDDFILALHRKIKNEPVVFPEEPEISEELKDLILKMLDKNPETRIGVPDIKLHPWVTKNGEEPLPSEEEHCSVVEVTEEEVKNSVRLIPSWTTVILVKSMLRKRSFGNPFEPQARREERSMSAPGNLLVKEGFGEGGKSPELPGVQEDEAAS
UniProt P49137, sequence (whole entry, looked up): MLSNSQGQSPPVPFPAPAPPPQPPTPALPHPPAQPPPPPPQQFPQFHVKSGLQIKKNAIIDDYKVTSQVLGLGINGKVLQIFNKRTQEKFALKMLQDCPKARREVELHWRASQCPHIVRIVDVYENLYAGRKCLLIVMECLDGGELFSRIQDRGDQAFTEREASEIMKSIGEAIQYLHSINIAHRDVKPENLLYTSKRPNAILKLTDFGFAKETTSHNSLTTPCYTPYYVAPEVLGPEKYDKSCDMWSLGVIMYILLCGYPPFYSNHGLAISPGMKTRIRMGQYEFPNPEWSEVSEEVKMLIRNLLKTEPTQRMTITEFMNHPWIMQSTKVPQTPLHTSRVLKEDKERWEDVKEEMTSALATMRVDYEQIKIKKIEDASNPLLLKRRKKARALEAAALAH
UniProt Q13705, sequence (whole entry, looked up): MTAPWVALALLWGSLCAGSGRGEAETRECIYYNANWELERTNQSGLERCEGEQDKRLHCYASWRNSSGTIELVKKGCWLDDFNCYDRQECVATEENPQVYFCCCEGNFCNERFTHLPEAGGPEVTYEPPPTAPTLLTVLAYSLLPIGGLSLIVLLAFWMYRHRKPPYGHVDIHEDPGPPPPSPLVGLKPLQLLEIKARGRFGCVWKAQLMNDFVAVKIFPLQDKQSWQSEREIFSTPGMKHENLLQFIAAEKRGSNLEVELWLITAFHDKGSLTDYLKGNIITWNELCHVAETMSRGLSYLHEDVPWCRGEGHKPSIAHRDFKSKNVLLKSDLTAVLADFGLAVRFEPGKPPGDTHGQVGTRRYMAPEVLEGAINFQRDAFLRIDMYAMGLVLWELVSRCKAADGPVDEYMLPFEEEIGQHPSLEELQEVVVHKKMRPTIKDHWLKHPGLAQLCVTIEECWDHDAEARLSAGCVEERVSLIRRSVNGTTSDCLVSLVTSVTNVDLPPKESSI
UniProt Q96Q40, sequence (whole entry, looked up): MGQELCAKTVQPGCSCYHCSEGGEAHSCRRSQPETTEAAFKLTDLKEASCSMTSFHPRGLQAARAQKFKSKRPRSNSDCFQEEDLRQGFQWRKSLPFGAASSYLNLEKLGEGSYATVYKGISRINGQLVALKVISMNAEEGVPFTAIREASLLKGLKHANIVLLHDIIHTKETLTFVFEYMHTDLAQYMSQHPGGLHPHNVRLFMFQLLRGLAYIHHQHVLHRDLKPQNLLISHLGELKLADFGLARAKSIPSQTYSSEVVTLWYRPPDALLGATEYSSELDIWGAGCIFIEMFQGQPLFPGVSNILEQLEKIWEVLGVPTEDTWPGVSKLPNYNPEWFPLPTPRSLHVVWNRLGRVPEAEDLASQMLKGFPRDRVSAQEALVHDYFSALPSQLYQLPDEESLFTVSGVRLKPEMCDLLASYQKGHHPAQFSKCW

Series 1 — read-out: enzyme activity; mode: inhibitor; concentration: 0.5 µM; reference: control; quantity: remaining activity
Target: Serine/threonine-protein kinase 4 (STK4, Homo sapiens, UniProt Q13043)
UniProt Q13043, sequence (whole entry, looked up): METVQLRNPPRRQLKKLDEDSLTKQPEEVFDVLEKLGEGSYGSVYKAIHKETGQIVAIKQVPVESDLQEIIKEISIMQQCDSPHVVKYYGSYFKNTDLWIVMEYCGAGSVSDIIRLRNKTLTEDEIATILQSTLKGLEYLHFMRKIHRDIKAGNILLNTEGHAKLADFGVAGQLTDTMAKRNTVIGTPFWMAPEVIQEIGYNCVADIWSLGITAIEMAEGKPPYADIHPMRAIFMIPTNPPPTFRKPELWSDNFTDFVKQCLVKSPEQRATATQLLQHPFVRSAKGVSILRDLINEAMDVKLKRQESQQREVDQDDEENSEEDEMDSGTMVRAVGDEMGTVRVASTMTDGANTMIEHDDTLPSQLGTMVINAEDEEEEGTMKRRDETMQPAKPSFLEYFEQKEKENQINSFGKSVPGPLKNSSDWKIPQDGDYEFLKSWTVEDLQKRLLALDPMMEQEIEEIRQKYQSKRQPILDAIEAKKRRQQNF
CC(C)(C)c1nc2c3cc[nH]c(=O)c3c3cc(F)ccc3c2[nH]1: 6.84%
CCCCc1c(-c2ccc(O)cc2)[nH]c2nccnc12: 78.3%
Clc1ccc(Nc2nnc(Cc3ccncc3)c3ccccc23)cc1: 105%
O=Nc1c(-c2c(O)[nH]c3ccccc23)[nH]c2ccccc12: 18.8%
N#CC(c1ccnc(NCCc2cccnc2)n1)c1nc2ccccc2s1 (stereo not shown): 92.2%
O=C(O)/C=C/c1cc(Br)c(Br)c(Br)c1Br: 102%
O=c1c(-c2ccc(F)cc2)c(-c2ccncc2)[nH]n1-c1ccc(Cl)cc1: 90%
NC(=O)c1cccc(-c2cc(Nc3ccc(OC(F)(F)F)cc3)ncn2)c1: 88.7%
FC(F)(F)c1ccc(/C=C/c2nc(COc3ccc(CCCCn4ccnn4)cc3)co2)cc1: 97.5%
CC(C)n1cnc2c(Nc3cccc(Cl)c3)nc(NCCO)nc21: 93.1%
CNc1cc2c(Nc3cccc(Br)c3)ncnc2cn1: 95.4%
Nc1nc(Nc2ccc(S(N)(=O)=O)cc2)nn1C(=S)Nc1c(F)cccc1F: 2.16%
CCN(CC)CCCCN1c2ccccc2Oc2ccc(Cl)cc21: 98.9%
NC(=O)c1ccc(-c2nc(-c3ccc4c(c3)OCCO4)c(-c3ccccn3)[nH]2)cc1: 104%
N#C/C(=C(/N)SC1C=CC=CC1)c1cccc(C(O)c2ccncc2)c1 (stereo not shown): 87.2%
C[C@@H](N)[C@H]1CC[C@H](C(=O)Nc2ccncc2)CC1: 92.4%
CC(C)N(CCC(=O)c1ccc2ccccc2c1)Cc1ccccc1: 92.5%
COc1cc2c(Nc3ccc(Br)cc3F)ncnc2cc1OCC1CCN(C)CC1: 103%
O=C1NC(=O)/C(=C/c2ccc3c(c2)OC(F)(F)O3)S1: 93.3%
O=C(c1ccccc1)c1ccc(N2CCOCC2)cc1O: 103%
COc1cc2c(N3CCN(C(=O)Nc4ccc(OC(C)C)cc4)CC3)ncnc2cc1OCCCN1CCCCC1: 96.2%
O=C1c2ccccc2-c2nc3nnnn3nc21: 87.8%
c1cc(-c2cnn3cc(-c4ccc(OCCN5CCCCC5)cc4)cnc23)ccn1: 86.8%

Series 2 — read-out: cell-free assay; method: competition with immobilised ligand; concentration: 0.1 µM; quantity: remaining binding
Structure (SMILES): CS(=O)(=O)N1CCCC(NC(=O)[C@H](CCC2CCCCC2)NC(=O)c2ccc(CNC(=O)c3cnc4ccccn34)cc2)C1 (stereo partly shown)
BRAF (Homo sapiens, UniProt P15056, V600E): 51%
STK32A (Homo sapiens, UniProt Q8WU08): 81%
Non-receptor tyrosine-protein kinase TYK2, JH2 (TYK2, Homo sapiens, UniProt P29597): 86%
CAMKK1 (Homo sapiens, UniProt Q8N5S9): 84%
KIT (Homo sapiens, UniProt P10721, L576P): 55%
CILK1 (Homo sapiens, UniProt Q9UPZ9): 100%
BMPR1A (Homo sapiens, UniProt P36894): 94%
PRKCI (Homo sapiens, UniProt P41743): 94%
DMPK (Homo sapiens, UniProt Q09013): 98%
MAP2K7 (Homo sapiens, UniProt O14733): 95%
STK38 (Homo sapiens, UniProt Q15208): 81%
PIK3CD (Homo sapiens, UniProt O00329): 67%
ULK2 (Homo sapiens, UniProt Q8IYT8): 100%
CDKL1 (Homo sapiens, UniProt Q00532): 91%
CAMKK2 (Homo sapiens, UniProt Q96RR4): 88%
GRK1 (Homo sapiens, UniProt Q15835): 100%
DYRK1B (Homo sapiens, UniProt Q9Y463): 100%
Myosin-IIIa (MYO3A, Homo sapiens, UniProt Q8NEV4): 99%
MAPK1 (Homo sapiens, UniProt P28482): 100%
WEE1 (Homo sapiens, UniProt P30291): 100%
GRK2 (Homo sapiens, UniProt P25098): 88%
MAPKAPK2 (Homo sapiens, UniProt P49137): 76%

Series 3 — read-out: enzyme activity; mode: inhibitor; concentration: 10 µM; quantity: inhibition
Target: Calcium/calmodulin-dependent protein kinase type II subunit alpha (CAMK2A, Homo sapiens, UniProt Q9UQM7)
UniProt Q9UQM7, sequence (whole entry, looked up): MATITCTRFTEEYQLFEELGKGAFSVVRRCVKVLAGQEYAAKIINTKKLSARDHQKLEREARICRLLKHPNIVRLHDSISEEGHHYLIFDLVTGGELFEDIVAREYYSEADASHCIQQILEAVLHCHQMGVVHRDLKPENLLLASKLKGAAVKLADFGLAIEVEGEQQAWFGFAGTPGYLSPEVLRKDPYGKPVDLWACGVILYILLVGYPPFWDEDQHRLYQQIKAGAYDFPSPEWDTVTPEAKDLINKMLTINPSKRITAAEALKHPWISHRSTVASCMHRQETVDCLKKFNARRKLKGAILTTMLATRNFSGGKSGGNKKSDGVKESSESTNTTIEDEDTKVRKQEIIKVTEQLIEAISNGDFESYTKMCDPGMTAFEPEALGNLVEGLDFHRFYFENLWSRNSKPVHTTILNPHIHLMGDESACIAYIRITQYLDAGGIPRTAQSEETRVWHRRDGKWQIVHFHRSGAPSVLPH
CC1=C2[C@@H](OC1=O)[C@H](O)[C@]13[C@H]4C[C@@H](C(C)(C)C)[C@]15[C@@H](OC(=O)[C@@H]5O)O[C@@]23C(=O)O4: -5%
C=C1C(=O)O[C@@H]2/C=C(/C)[C@@H](OC(C)=O)C/C=C(/C=O)C[C@@H](OC(=O)/C(C)=C/CO)[C@@H]12: 0%
CC(=O)[C@H]1CC[C@H]2[C@@H]3CCC4=CC(=O)CC[C@]4(C)[C@H]3CC[C@]12C: 8%
CC(=O)O[C@H]1CC[C@]2(C)[C@H]3CC=C4[C@@H]5[C@@H](C)[C@H](C)CC[C@]5(C(=O)O)CC[C@@]4(C)[C@]3(C)CC[C@H]2C1(C)C: -5%
CN1CCC(=C2c3ccccc3CCc3sccc32)CC1: -3%
COc1cc2ccc(=O)oc2cc1O: 36%
CON(C)Cc1ccc(O)c2c1C[C@H]1C[C@H]3[C@H](N(C)C)C(O)=C(C(N)=O)C(=O)[C@@]3(O)C(O)=C1C2=O: -2%
CC(C)[C@@H]1NC(=O)[C@@H]2CCCN2C(=O)[C@H](C(C)C)NC(=O)CNC(=O)[C@H](C)NC(=O)[C@H](Cc2c[nH]c3ccccc23)NC1=O: 12%
CC(=O)CC(c1ccc([N+](=O)[O-])cc1)c1c(O)c2ccccc2oc1=O (stereo not shown): 0%
COC(=O)C1=COC(O[C@@H]2O[C@H](CO)[C@@H](O)[C@H](O)[C@H]2O)/C(=C/C(=O)O)C1CC(=O)OCCc1ccc(O)cc1 (stereo partly shown): -4%
C/C=C/C=C/C=C\CC/C=C/C(=O)NCC(C)(C)O: -3%
C[C@@H]1C[C@H]2[C@@H]3CCC4=CC(=O)C=C[C@]4(C)[C@@]3(Cl)[C@@H](O)C[C@]2(C)[C@@]1(OC(=O)c1ccco1)C(=O)CCl: 4%
O=c1c(O)c(-c2cc(O)c(O)c(O)c2)oc2cc(O)cc(O)c12: -69%
Cc1nccn1CCC(C(N)=O)(c1ccccc1)c1ccccc1: -2%

Series 4 — concentration: 1 µM; quantity: remaining binding
Compound: CN1CCN(C(=O)c2ccc(NC(=O)Nc3ccc(N(C)c4ccnc(Nc5ccc(CS(C)(=O)=O)cc5)n4)cc3)cc2)CC1
SGK1 (Homo sapiens, UniProt O00141); competitive binding; SGK: 57%
MKNK1 (Homo sapiens, UniProt Q9BUB5); competitive binding panel; reference: vehicle: 65%
RPS6KA5 (Homo sapiens, UniProt O75582); competitive binding scan; C-terminal kinase domain 2: 87%
MAP3K7 (Homo sapiens, UniProt O43318); competitive binding panel, measured: TAK1; reference: vehicle: 25%
CDK15 (Homo sapiens, UniProt Q96Q40); competitive binding; PFTAIRE2: 100%
CASK (Homo sapiens, UniProt O14936); competitive binding panel; reference: vehicle: 85%
STK17A (Homo sapiens, UniProt Q9UEE5); competitive binding panel, measured: DRAK1; reference: vehicle: 100%
TEC (Homo sapiens, UniProt P42680); competitive binding panel; reference: vehicle: 100%
ACVR2B (Homo sapiens, UniProt Q13705); competitive binding panel; reference: vehicle: 94%
CHUK (Homo sapiens, UniProt O15111); competitive binding; IKK-alpha: 90%
FRK (Homo sapiens, UniProt P42685); competitive binding panel; reference: vehicle: 80%

Repeated from above (series 2):
DMPK (Homo sapiens, UniProt Q09013): 98%
MAP2K7 (Homo sapiens, UniProt O14733): 95%
STK38 (Homo sapiens, UniProt Q15208): 81%
PIK3CD (Homo sapiens, UniProt O00329): 67%
ULK2 (Homo sapiens, UniProt Q8IYT8): 100%
CDKL1 (Homo sapiens, UniProt Q00532): 91%
CAMKK2 (Homo sapiens, UniProt Q96RR4): 88%
GRK1 (Homo sapiens, UniProt Q15835): 100%
DYRK1B (Homo sapiens, UniProt Q9Y463): 100%
Myosin-IIIa (MYO3A, Homo sapiens, UniProt Q8NEV4): 99%
